Published values from different studies.
A part holds a random share of what one study measured. Values joined by “and” are separate records of one study, mostly repeats; a detail may differ.
UniProt P28335, sequence (whole entry, looked up): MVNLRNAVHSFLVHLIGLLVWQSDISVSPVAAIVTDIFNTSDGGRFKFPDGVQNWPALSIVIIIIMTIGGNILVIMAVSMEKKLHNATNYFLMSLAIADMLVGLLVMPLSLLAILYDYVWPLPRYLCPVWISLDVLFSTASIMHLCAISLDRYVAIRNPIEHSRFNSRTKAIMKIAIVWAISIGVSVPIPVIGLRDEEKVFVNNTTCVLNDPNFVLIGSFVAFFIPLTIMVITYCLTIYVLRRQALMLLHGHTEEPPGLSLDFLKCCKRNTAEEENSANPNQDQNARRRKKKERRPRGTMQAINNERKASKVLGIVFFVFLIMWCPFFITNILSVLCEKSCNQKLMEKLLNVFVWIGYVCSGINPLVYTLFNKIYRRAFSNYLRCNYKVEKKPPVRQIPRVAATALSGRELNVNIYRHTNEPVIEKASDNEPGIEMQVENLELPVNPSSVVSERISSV

Series 1
Cell line: A-375
Concentration: 100 µM
Time: 60 h
Structure (SMILES) | viability [%]
O=c1cc(-c2ccc(O)c(O)c2)oc2cc(O)cc(O)c12 | 13.4
CCCCc1ncc(/C=C(\Cc2cccs2)C(=O)O)n1Cc1ccc(C(=O)O)cc1 | 102
CS(=O)(=O)c1ccc(C2=C(c3ccccc3)C(=O)OC2)cc1 | 102

Series 2
SMILES: c1ccc(Oc2ccc(Nc3c4c(nc5ccccc35)CCC4)cc2)cc1
Organism: Leishmania donovani
Strain: DD8
Sample: promastigotes
setting | promastigote number
3.33 µM, 72 h | 15600 and 15700
0.16 µM, 72 h | 9.76e+06
1.66 µM, 72 h | 135000
1.66 µM, 48 h | 135000
16.66 µM, 48 h | 1240
0.33 µM, 72 h | 8.16e+06 and 8.15e+06
33.33 µM, 48 h | 1590
33.33 µM, 72 h | 1570 and 1240

Series 3
Compound: CC(C)n1cnc(-c2ccc(F)cc2)c1-c1ncc(C(=O)Nc2ccc(N3CCN(C)CC3)cc2)[nH]1
Method: phase 2a trial
Host: idiopathic pulmonary fibrosis patients
setting | patients with nausea [%]
60 mg once daily, grade 4 emergent event | 0
30 mg once daily, grade 5 emergent event | 0
60 mg once daily, grade 5 emergent event | 0
60 mg once daily, grade 3 emergent event | 0
30 mg once daily, grade 4 emergent event | 0
30 mg once daily, grade 1 emergent event | 0
30 mg once daily, grade 2 emergent event | 0
all arms, grade 3 emergent event | 0

Mixed results
Molecule | target | assay | test system | setting | endpoint | result
IQNALEKAL | HLA class I histocompatibility antigen, A alpha chain, allele A*80:01 (Homo sapiens, UniProt P04439) | peptide-MHC binding | peptide | concentration not given | binding | inactive
CNCc1ccccc1-c1csc([C@H](C)Nc2nc(C)nc3cc(OC)c(OC)cc23)c1 | HTR2C (Homo sapiens, UniProt P28335) | binding, radioligand binding | – | 10 µM | inhibition | 71.8%

Excerpt of the above (series 1):
Structure (SMILES) | viability [%]
CCCCc1ncc(/C=C(\Cc2cccs2)C(=O)O)n1Cc1ccc(C(=O)O)cc1 | 102
O=c1cc(-c2ccc(O)c(O)c2)oc2cc(O)cc(O)c12 | 13.4
